# Assay results from different studies.
# Each numbered part is a random draw from the data of one study; scales do not carry over between parts.

# Block 1 — technique: protein binding microarray; form: double-stranded DNA, one strand shown; medium: in vitro; concentration: not given; baseline: not given; reading: higher = stronger binding
# Target: Histone acetyltransferase KAT6A, winged helix 2, GST fusion (KAT6A, Homo sapiens, UniProt Q92794, residues 85-181)
# Notes: 8-mer, flanks averaged, mean of 2 arrays, mostly near background
# Target sequence (chain): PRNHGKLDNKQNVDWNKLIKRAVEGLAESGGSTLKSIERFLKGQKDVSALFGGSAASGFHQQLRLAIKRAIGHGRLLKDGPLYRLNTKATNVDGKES
Sequence,E-score
CAATTTTA,-0.0475
GGTCCGAC,0.0108
ACCTAGCG,-0.0146

# Block 2 — technique: RNA Bind-n-Seq; form: RNA; medium: in vitro; concentration: 1 µM; notes: whole 134-nt RNA, ends assumed; with: 150 mM KCl; baseline: input library; reading: higher = stronger binding
# Target: Ras GTPase-activating protein-binding protein 1, RRM domain (G3BP1, Homo sapiens, UniProt Q13283)
# Sequence of UniProt Q13283 (whole entry, looked up): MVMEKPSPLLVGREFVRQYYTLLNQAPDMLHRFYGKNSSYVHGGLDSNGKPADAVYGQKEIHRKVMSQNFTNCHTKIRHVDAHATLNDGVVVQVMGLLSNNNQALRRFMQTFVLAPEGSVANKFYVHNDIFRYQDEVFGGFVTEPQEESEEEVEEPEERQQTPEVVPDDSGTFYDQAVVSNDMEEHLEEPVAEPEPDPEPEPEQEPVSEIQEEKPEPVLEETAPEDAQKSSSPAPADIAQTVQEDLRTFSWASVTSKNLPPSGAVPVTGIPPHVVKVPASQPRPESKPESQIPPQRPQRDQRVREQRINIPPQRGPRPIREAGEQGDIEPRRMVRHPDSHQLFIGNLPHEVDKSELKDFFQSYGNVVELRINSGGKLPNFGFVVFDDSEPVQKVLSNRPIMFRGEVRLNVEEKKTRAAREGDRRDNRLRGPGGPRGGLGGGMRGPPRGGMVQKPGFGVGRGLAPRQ
Sequence,log2 enrichment
GGGAGUUCUACAGUCCGACGAUCUGGCCCUGGUGGCAUGCGGGGAGGAAGAGGUGGCCUCAUGGAUCGUGGUGGUCCCGGUGGAAUGUUCAGAGGUGGCCGUGGUAGAGACAGUGGAAUUCUCGGGUGUCAAGG,2.52
GGGAGUUCUACAGUCCGACGAUCUCCUGUGCUACACAUCGUAUGUACCGAAUCGGUUUUUUUGGUUUUUUUGGUUUUUUUGGGAAAGUAUUAUGUUACGCCGUUCGGAUCUGCUGGAAUUCUCGGGUGUCAAGG,-0.144
GGGAGUUCUACAGUCCGACGAUCGUCCUGUGCUACACAUCGUAUGUACCGAAUCGGGGUUUGGGGUUUUUUUGGGGUGGGGAAAGUAUUAUGUUACGCCGUUCGGAUCUGCACUGGAAUUCUCGGGUGUCAAGG,0.839

# Block 3 — technique: protein-binding microarray; form: double-stranded DNA, one strand shown; medium: in vitro; concentration: 2540 nM top; notes: 60-bp whole probe; with: salmon DNA 0.4 mg/ml; baseline: random background probes; reading: higher = stronger binding
# Target: Interferon regulatory factor 3, full length, phosphomimetic (IRF3, Homo sapiens, UniProt Q14653, residues 1-427, S386D/S396D/S398D/S402D/T404D/S405D)
# Construct (chain): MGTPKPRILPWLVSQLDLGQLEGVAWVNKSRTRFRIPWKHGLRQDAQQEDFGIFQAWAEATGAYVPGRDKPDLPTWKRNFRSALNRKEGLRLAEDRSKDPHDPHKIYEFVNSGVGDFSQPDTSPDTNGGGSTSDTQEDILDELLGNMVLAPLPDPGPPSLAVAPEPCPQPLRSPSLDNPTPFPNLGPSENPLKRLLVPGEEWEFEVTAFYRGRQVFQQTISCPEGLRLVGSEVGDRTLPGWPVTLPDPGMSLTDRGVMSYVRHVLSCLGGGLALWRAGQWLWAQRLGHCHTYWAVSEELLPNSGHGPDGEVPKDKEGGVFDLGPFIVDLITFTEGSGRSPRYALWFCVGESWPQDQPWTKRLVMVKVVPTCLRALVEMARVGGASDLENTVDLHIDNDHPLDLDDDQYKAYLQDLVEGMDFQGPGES
Sequence,fitted relative affinity [z-score]
GCCTAGCACTTAGATTTCAGTCTCGATTCGTGCTAGGTCTTGATTCGCTTGACGCTGCTG,2.71
GCCTAGCACTTAGGTTACGGGTATCGGTTAGTGCTAGTCTTGATTCGCTTGACGCTGCTG,0.772
GCCTAGCACTTCGGTTTCGGTTTCGGTTAGTGCTAGGTCTTGATTCGCTTGACGCTGCTG,12.4

# Single results of other studies
Molecule,target,assay,system,conditions,scale,endpoint,result
"PhoQ, residues 284 288 289 292 302 303 SSLVEF","PhoP, residues 12 14 15 18 19 GQAIL (Escherichia coli, UniProt P23836)","Sort-seq, refers to: YFP reporter",E. coli,"PhoQ-PhoP variant library, with: 10 µM Mg2+","baseline: high Mg2+ state, higher = stronger signaling",fold induction,11.5

# For quick reference, copied from above (block 3):
Sequence,fitted relative affinity [z-score]
GCCTAGCACTTAGATTTCAGTCTCGATTCGTGCTAGGTCTTGATTCGCTTGACGCTGCTG,2.71
